Measurements of several laboratories.
Numbered parts are unrelated; each lists some results of a single study.
UniProt P37173, sequence (whole entry, looked up): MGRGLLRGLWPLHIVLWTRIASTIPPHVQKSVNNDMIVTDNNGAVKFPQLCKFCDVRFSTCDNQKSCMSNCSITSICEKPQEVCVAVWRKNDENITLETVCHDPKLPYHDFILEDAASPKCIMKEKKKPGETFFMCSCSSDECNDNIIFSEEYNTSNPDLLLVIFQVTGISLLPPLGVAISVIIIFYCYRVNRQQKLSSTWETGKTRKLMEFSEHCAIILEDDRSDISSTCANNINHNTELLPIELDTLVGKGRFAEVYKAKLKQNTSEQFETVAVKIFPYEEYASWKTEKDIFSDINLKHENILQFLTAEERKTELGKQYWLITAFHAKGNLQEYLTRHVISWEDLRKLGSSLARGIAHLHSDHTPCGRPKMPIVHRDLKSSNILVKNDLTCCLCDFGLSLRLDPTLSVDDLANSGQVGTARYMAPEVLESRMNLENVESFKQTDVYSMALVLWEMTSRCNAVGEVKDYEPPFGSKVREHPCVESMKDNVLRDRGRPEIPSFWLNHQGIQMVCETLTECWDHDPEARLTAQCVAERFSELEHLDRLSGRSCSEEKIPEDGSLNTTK
UniProt P45985, sequence (whole entry, looked up): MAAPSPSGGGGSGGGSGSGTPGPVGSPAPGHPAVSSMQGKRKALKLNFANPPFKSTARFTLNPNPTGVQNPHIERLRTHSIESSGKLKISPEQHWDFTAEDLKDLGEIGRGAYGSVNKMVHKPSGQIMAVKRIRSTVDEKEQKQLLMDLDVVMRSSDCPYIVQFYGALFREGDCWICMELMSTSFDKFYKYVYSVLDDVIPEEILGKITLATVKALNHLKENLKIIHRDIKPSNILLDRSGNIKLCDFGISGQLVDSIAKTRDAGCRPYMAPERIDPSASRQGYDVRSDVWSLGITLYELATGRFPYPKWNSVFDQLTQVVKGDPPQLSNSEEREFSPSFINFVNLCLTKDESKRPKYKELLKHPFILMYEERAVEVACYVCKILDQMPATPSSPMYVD
UniProt Q16539, sequence (whole entry, looked up): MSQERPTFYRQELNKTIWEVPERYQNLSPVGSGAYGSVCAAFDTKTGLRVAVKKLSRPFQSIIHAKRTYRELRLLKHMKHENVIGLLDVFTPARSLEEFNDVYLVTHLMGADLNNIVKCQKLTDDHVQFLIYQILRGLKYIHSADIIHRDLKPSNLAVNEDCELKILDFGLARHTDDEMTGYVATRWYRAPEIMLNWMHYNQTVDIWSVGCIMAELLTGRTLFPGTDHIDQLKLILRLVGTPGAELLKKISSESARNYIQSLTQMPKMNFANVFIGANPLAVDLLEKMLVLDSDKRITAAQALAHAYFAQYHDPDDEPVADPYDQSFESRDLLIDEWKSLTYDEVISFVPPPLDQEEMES
UniProt Q04771, sequence (whole entry, looked up): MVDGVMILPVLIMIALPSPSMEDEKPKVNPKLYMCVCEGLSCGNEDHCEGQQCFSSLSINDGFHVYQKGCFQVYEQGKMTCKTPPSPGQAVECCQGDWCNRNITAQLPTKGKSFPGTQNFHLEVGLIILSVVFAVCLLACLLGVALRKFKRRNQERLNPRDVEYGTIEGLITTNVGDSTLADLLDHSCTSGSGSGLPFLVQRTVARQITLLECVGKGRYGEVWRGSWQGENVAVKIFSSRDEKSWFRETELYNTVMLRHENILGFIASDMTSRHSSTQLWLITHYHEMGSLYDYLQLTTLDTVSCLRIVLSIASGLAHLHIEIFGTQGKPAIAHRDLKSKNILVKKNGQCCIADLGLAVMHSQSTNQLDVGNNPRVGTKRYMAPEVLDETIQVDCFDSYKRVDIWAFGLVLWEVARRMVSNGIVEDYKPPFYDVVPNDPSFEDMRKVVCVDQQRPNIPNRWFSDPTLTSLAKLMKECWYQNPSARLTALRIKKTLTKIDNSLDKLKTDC
UniProt Q8NEB9, sequence (whole entry, looked up): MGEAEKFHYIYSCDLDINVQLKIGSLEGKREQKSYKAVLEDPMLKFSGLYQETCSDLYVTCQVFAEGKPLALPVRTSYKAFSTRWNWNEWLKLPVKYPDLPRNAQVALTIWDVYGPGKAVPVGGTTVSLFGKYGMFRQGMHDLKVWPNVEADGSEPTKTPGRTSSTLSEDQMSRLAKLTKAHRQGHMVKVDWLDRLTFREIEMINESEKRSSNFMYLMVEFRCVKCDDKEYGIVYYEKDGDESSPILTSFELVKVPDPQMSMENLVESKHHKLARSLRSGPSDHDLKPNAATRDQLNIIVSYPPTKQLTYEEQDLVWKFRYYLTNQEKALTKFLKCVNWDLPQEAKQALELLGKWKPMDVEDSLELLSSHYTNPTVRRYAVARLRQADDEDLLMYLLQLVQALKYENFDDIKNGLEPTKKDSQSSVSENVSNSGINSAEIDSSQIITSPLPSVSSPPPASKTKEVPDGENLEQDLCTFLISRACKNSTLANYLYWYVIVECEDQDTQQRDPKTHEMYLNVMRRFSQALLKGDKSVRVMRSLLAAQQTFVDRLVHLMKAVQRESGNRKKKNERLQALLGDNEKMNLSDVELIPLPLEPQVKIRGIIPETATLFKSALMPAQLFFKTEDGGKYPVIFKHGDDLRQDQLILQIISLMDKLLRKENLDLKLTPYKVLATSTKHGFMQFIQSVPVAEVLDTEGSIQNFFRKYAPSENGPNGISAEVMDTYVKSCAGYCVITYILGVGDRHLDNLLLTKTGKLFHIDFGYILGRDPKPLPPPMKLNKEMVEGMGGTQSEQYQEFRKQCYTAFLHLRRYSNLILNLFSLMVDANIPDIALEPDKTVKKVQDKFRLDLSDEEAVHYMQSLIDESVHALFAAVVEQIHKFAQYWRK
UniProt Q8IVW4, sequence (whole entry, looked up): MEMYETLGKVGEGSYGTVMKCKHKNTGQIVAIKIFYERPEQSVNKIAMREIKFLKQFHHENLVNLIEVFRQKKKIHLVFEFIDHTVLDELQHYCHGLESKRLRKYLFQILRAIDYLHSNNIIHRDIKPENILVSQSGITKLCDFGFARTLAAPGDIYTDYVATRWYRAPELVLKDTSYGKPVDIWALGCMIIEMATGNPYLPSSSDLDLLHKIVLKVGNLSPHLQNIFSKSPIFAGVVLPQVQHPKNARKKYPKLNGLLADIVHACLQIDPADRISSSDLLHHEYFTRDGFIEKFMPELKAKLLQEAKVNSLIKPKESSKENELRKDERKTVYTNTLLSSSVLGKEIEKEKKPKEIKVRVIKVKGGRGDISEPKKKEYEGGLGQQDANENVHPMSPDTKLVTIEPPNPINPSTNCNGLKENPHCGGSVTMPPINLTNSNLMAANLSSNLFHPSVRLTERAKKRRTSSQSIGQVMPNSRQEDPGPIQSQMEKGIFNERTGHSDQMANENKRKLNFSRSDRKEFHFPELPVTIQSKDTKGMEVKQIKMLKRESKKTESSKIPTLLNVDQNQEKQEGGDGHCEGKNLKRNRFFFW

Sample 1 — technique: competition with immobilised ligand; quantity: remaining binding
Compound: C[C@@H]1CN(c2cc(-c3n[nH]c4ccc(OC5(C)CC5)cc34)ncn2)C[C@H](C)O1
TGFBR2 (Homo sapiens, UniProt P37173); cell-free assay; 0.1 µM: 100%
EPHA5 (Homo sapiens, UniProt P54756); cell-free assay; 0.1 µM: 95%
PIK3C3 (Homo sapiens, UniProt Q8NEB9); cell-free assay; 0.1 µM: 100%
STK3 (Homo sapiens, UniProt Q13188); cell-free assay; 0.1 µM: 78%
HCK (Homo sapiens, UniProt P08631); cell-free assay; 0.1 µM: 84%
EPHA6 (Homo sapiens, UniProt Q9UF33); cell-free assay; 0.1 µM: 90%
CSNK2A2 (Homo sapiens, UniProt P19784); cell-free assay; 0.1 µM: 100%
MAP3K19 (Homo sapiens, UniProt Q56UN5); cell-free assay; 0.1 µM: 84%
SRPK1 (Homo sapiens, UniProt Q96SB4); cell-free assay; 0.1 µM: 100%
MAPK7 (Homo sapiens, UniProt Q13164); cell-free assay; 0.1 µM: 92%
BRAF (Homo sapiens, UniProt P15056); cell-free assay; 0.1 µM: 91%
MAPK8 (Homo sapiens, UniProt P45983); cell-free assay; 0.1 µM: 63%
BRSK2 (Homo sapiens, UniProt Q8IWQ3); cell-free assay; 0.1 µM: 100%
MAPK14 (Homo sapiens, UniProt Q16539); cell-free assay; 0.1 µM: 95%
DCLK2 (Homo sapiens, UniProt Q8N568); cell-free assay; 0.1 µM: 89%
TAOK1 (Homo sapiens, UniProt Q7L7X3); cell-free assay; 0.1 µM: 86%
FLT3 (Homo sapiens, UniProt P36888); binding; 1 µM: 46%
Tyrosine-protein kinase ABL1, phosphorylated (ABL1, Homo sapiens, UniProt P00519, M351T); cell-free assay; 0.1 µM: 95%
NUAK2 (Homo sapiens, UniProt Q9H093); cell-free assay; 0.1 µM: 79%
CHEK1 (Homo sapiens, UniProt O14757); cell-free assay; 0.1 µM: 90%
TNNI3K (Homo sapiens, UniProt Q59H18); cell-free assay; 0.1 µM: 78%
TIE1 (Homo sapiens, UniProt P35590); cell-free assay; 0.1 µM: 67%
MAP2K4 (Homo sapiens, UniProt P45985); cell-free assay; 0.1 µM: 73%
LATS2 (Homo sapiens, UniProt Q9NRM7); cell-free assay; 0.1 µM: 68%
CDK2 (Homo sapiens, UniProt P24941); cell-free assay; 0.1 µM: 96%

Sample 2 — cell line: HaCaT; tested at: 100 µM; time: 60 h; quantity: viability
C/C=C1\[C@H]2C=C(C)C[C@]1(N)c1ccc(=O)[nH]c1C2: 143%
COc1cc2c(cc1OC)[C@H]1CC(=O)[C@H](CC(C)C)CN1CC2 (racemic): 83.2%
O=C1C(CC[S+]([O-])c2ccccc2)C(=O)N(c2ccccc2)N1c1ccccc1 (stereo not shown): 137%
CCCCNC(=O)NS(=O)(=O)c1ccc(C)cc1: 122%
Cc1cn([C@H]2O[C@@H](CO)[C@H](O)[C@H]2F)c(=O)[nH]c1=O: 116%
CN(C)CCc1c[nH]c2ccc(Cn3cncn3)cc12: 120%
CN[C@@H]1[C@@H](O[C@H]2O[C@H](CO)[C@@H](N)[C@H](O)[C@H]2O)O[C@H]2C[C@@H](N)[C@@H](O[C@H]3[C@H](O)[C@@H](O)[C@H](N)C[C@@H]3N)O[C@@H]2[C@@H]1O: 118%
Cc1c(Cl)cccc1Nc1ccccc1C(=O)O: 99.1%

Sample 3 — observed: enzyme activity; mode: inhibitor; tested at: 0.5 µM; baseline: control; quantity: remaining activity
Target: Activin receptor type-1-like (ACVRL1, Homo sapiens, UniProt P37023)
UniProt P37023, sequence (whole entry, looked up): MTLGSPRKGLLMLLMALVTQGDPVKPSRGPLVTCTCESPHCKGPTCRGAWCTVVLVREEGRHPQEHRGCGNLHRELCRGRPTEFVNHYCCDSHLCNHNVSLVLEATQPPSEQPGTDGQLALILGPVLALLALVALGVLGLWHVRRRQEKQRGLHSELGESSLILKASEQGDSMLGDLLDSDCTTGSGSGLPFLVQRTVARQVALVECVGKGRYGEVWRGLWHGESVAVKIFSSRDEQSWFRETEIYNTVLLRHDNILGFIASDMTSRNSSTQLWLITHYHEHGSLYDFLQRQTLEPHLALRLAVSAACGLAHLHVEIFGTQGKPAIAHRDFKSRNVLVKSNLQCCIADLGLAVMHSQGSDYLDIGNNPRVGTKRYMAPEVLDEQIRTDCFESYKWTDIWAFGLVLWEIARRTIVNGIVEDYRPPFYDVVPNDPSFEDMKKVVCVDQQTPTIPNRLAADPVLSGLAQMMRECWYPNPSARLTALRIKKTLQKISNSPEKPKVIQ
NC(=O)c1cccc(-c2cc(Nc3ccc(OC(F)(F)F)cc3)ncn2)c1: 99.2%
CNc1cc2c(Nc3cccc(Br)c3)ncnc2cn1: 90.6%
C[C@@H](N)[C@H]1CC[C@H](C(=O)Nc2ccncc2)CC1: 101%
O=c1c(-c2ccc(F)cc2)c(-c2ccncc2)[nH]n1-c1ccc(Cl)cc1: 88.1%
CC(C)n1cnc2c(Nc3cccc(Cl)c3)nc(NCCO)nc21: 103%
O=C(O)/C=C/c1cc(Br)c(Br)c(Br)c1Br: 103%
N#C/C(=C(/N)SC1C=CC=CC1)c1cccc(C(O)c2ccncc2)c1 (stereo not shown): 98.7%
CC(C)N(CCC(=O)c1ccc2ccccc2c1)Cc1ccccc1: 107%
COc1cc2c(Nc3ccc(Br)cc3F)ncnc2cc1OCC1CCN(C)CC1: 104%
NC(=O)c1ccc(-c2nc(-c3ccc4c(c3)OCCO4)c(-c3ccccn3)[nH]2)cc1: 107%
CCN(CC)CCCCN1c2ccccc2Oc2ccc(Cl)cc21: 102%
O=C(c1ccccc1)c1ccc(N2CCOCC2)cc1O: 105%
O=Nc1c(-c2c(O)[nH]c3ccccc23)[nH]c2ccccc12: 108%
O=C1c2ccccc2-c2nc3nnnn3nc21: 105%
Clc1ccc(Nc2nnc(Cc3ccncc3)c3ccccc23)cc1: 98.5%
FC(F)(F)c1ccc(/C=C/c2nc(COc3ccc(CCCCn4ccnn4)cc3)co2)cc1: 103%
CC(C)(C)c1nc2c3cc[nH]c(=O)c3c3cc(F)ccc3c2[nH]1: 105%
O=C1NC(=O)/C(=C/c2ccc3c(c2)OC(F)(F)O3)S1: 97.1%
Nc1nc(Nc2ccc(S(N)(=O)=O)cc2)nn1C(=S)Nc1c(F)cccc1F: 15.1%
N#CC(c1ccnc(NCCc2cccnc2)n1)c1nc2ccccc2s1 (stereo not shown): 102%
c1cc(-c2cnn3cc(-c4ccc(OCCN5CCCCC5)cc4)cnc23)ccn1: 21.6%
CCCCc1c(-c2ccc(O)cc2)[nH]c2nccnc12: 76.2%

Sample 4 — observed: binding; tested at: 1 µM; quantity: remaining binding
Compound: Cc1ccc(NC(=O)c2ccnc(C(F)(F)F)c2)cc1-c1cc(OCCO)nc(N2CCOCC2)c1
TLK1 (Homo sapiens, UniProt Q9UKI8): 87%
AAK1 (Homo sapiens, UniProt Q2M2I8); competition with immobilised ligand: 78%
PIK3CA (Homo sapiens, UniProt P42336, E545K): 73%
EPHB4 (Homo sapiens, UniProt P54760); competition with immobilised ligand: 87%
WEE1 (Homo sapiens, UniProt P30291); competition with immobilised ligand: 88%
RET (Homo sapiens, UniProt P07949); competition with immobilised ligand: 92%
CDKL3 (Homo sapiens, UniProt Q8IVW4); competition with immobilised ligand: 93%
ACVR1 (Homo sapiens, UniProt Q04771); competition with immobilised ligand: 100%
BMPR1A (Homo sapiens, UniProt P36894); competition with immobilised ligand: 88%
LIM domain kinase 2 (LIMK2, Homo sapiens, UniProt P53671); competition with immobilised ligand: 88%
FLT3 (Homo sapiens, UniProt P36888, K663Q): 98%
ITK (Homo sapiens, UniProt Q08881): 100%
MAPK4 (Homo sapiens, UniProt P31152): 96%
EGFR (Homo sapiens, UniProt P00533); competition with immobilised ligand: 67%
LCK (Homo sapiens, UniProt P06239); competition with immobilised ligand: 71%
Mast/stem cell growth factor receptor Kit, autoinhibited (KIT, Homo sapiens, UniProt P10721); competition with immobilised ligand: 75%
DAPK1 (Homo sapiens, UniProt P53355): 74%
CDK11B (Homo sapiens, UniProt P21127); competition with immobilised ligand: 45%

Excerpt of the above (sample 1):
MAPK7 (Homo sapiens, UniProt Q13164); cell-free assay; 0.1 µM: 92%
BRAF (Homo sapiens, UniProt P15056); cell-free assay; 0.1 µM: 91%
MAPK8 (Homo sapiens, UniProt P45983); cell-free assay; 0.1 µM: 63%
BRSK2 (Homo sapiens, UniProt Q8IWQ3); cell-free assay; 0.1 µM: 100%
MAPK14 (Homo sapiens, UniProt Q16539); cell-free assay; 0.1 µM: 95%
DCLK2 (Homo sapiens, UniProt Q8N568); cell-free assay; 0.1 µM: 89%
TAOK1 (Homo sapiens, UniProt Q7L7X3); cell-free assay; 0.1 µM: 86%
